Measured values from different studies.
Lines come from different studies, so protocols differ. Numbers after ± are the reported error.
IDE: Insulin-degrading enzyme (IDE, Homo sapiens, UniProt P14735)
PLG: Plasminogen (PLG, Homo sapiens, UniProt P00747)
Chain of UniProt P00747 (whole entry, looked up): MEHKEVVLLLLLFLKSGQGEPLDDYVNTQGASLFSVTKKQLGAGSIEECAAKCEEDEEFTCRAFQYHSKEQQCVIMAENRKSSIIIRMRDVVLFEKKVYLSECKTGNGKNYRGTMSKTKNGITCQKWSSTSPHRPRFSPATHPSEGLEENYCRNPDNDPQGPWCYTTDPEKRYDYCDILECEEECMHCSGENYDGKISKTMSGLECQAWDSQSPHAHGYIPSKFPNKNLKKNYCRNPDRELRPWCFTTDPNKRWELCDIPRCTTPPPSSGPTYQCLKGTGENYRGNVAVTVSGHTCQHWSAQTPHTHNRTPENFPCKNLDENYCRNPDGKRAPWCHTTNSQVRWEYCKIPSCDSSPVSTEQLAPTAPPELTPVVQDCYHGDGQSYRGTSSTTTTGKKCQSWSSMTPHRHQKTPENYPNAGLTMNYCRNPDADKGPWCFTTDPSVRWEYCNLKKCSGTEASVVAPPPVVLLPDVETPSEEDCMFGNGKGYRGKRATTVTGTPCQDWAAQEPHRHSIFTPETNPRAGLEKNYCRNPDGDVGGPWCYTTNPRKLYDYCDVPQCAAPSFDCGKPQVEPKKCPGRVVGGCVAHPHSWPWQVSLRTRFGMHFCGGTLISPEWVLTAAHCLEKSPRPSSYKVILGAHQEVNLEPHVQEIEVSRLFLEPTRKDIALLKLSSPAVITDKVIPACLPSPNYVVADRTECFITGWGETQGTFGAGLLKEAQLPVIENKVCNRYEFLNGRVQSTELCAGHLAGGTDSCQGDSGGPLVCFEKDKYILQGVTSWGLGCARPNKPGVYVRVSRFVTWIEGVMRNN
CSNK1D: Casein kinase I isoform delta (CSNK1D, Homo sapiens, UniProt P48730)
Chain of UniProt P48730 (whole entry, looked up): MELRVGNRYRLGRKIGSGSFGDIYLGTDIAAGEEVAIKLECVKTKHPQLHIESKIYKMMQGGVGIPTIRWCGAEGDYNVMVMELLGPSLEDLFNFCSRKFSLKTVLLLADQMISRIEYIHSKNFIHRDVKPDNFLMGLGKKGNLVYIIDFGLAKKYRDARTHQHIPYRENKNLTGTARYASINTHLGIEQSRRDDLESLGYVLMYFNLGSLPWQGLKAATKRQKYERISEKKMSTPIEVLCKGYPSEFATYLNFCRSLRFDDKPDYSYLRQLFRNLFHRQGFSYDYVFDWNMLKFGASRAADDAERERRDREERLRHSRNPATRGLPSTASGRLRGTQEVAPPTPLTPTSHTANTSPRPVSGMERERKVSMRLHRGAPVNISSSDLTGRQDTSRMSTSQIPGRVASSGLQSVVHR
Dihydrofolate reductase type 2: Dihydrofolate reductase type 2 (Escherichia coli, UniProt P00383)
Chain of UniProt P00383 (whole entry, looked up): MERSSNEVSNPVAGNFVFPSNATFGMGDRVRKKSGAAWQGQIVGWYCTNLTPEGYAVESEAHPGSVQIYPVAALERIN
PSMB5: Proteasome Macropain subunit MB1 (PSMB5, Homo sapiens, UniProt P28074)
Chain of UniProt P28074 (whole entry, looked up): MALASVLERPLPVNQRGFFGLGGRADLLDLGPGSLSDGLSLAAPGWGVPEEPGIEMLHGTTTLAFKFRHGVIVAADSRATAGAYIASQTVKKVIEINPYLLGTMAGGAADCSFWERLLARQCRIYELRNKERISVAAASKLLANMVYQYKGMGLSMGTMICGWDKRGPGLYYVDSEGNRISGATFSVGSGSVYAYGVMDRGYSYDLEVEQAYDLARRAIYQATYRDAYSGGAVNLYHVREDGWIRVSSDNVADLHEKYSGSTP
Chain of UniProt P14555 (whole entry, looked up): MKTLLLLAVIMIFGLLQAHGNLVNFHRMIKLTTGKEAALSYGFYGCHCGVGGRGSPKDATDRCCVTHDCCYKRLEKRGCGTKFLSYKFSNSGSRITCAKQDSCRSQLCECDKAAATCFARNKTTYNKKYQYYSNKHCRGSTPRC
Chain of UniProt P05181 (whole entry, looked up): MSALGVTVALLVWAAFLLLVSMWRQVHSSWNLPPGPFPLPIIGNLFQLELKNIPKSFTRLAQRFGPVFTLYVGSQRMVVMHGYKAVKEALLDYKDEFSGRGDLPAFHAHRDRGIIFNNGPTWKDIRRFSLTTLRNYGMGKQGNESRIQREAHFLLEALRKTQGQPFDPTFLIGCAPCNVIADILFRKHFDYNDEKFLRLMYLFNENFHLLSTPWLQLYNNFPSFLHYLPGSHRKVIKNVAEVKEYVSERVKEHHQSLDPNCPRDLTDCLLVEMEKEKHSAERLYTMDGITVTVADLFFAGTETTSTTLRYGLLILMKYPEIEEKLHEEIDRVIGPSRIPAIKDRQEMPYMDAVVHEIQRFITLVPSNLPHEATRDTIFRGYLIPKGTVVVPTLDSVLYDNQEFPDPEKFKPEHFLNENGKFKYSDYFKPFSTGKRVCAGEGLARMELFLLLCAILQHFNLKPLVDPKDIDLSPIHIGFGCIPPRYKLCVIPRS
Chain of UniProt P37231 (whole entry, looked up): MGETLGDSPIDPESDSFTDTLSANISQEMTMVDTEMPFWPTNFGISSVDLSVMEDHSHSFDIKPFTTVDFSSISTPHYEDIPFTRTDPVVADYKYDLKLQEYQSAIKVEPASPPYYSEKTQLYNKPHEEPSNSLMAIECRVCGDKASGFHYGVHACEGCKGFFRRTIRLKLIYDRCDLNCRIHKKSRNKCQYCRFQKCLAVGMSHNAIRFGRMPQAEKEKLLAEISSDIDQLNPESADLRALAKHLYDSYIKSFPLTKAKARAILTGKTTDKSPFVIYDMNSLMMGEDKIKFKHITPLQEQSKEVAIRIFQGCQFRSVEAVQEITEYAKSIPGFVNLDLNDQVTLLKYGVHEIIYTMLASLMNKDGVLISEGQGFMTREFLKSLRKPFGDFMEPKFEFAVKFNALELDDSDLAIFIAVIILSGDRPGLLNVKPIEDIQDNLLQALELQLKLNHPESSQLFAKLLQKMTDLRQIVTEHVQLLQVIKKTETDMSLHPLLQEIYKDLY
Chain of UniProt P07949 (whole entry, looked up): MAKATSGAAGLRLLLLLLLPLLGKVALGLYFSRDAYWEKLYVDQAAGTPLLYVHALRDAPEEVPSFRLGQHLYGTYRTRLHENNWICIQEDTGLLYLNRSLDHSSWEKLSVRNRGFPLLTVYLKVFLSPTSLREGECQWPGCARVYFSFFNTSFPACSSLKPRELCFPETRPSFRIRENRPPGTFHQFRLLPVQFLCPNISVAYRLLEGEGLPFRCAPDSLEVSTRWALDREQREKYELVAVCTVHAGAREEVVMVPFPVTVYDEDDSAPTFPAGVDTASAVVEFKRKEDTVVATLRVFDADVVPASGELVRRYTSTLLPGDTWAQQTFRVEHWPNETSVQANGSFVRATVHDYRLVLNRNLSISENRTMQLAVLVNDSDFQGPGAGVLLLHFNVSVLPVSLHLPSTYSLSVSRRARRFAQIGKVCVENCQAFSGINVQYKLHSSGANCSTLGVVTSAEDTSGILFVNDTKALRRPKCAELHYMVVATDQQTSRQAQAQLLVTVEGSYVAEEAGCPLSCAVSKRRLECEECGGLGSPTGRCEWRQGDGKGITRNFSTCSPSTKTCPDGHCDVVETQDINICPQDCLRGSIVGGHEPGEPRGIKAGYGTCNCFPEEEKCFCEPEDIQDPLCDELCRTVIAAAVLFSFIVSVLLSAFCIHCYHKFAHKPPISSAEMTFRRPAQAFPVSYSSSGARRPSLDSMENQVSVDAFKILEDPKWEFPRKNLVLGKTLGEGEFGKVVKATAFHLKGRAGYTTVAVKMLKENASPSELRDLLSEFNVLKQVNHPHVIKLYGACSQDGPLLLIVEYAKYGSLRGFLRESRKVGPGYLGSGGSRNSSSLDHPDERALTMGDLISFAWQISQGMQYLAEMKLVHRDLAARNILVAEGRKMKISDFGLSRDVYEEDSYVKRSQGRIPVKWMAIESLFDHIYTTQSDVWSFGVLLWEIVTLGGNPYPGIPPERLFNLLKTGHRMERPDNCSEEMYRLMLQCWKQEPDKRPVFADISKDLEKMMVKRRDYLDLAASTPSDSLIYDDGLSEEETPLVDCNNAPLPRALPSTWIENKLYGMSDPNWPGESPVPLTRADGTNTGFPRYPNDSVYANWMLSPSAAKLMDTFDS
Chain of UniProt P30530 (whole entry, looked up): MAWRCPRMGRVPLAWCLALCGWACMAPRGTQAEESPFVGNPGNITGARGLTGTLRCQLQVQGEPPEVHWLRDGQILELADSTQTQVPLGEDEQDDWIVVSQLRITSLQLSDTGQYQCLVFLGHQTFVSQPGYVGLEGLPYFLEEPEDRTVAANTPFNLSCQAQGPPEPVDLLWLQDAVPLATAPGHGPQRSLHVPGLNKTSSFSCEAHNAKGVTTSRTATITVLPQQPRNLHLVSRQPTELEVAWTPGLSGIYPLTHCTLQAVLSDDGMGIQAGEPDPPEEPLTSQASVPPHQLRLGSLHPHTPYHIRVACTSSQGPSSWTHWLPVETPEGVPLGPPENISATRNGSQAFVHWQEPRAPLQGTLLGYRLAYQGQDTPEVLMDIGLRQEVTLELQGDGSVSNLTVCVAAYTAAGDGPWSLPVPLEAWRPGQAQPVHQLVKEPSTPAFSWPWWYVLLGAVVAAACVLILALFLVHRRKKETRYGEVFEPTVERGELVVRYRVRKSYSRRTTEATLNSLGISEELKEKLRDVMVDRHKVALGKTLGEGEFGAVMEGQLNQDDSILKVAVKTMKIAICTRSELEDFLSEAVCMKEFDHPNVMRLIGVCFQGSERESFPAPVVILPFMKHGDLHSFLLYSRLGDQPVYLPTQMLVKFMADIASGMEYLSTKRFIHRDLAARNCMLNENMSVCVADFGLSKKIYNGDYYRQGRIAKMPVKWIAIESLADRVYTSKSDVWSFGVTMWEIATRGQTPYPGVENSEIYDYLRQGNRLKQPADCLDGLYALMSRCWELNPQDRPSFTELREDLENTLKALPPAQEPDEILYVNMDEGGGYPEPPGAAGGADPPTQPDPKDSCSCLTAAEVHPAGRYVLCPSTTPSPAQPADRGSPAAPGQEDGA
Chain of UniProt P28076 (whole entry, looked up): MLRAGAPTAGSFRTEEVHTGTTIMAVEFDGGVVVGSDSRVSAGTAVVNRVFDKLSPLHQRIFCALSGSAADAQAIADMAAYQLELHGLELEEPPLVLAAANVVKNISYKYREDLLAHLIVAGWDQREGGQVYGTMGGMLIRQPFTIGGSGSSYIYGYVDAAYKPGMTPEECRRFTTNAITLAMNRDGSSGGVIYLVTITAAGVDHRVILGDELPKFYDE

SMILES = COc1cc(/C=N/n2c(C)nc3ccc(C)cc3c2=O)cc([N+](=O)[O-])c1O; target = Phospholipase A2, membrane associated (Homo sapiens, UniProt P14555); assay = enzyme activity, inhibitor, colorimetric; endpoint = IC50; result = 30.1 ± 1.14 µM
SMILES = CC1=CC(=O)c2ccccc2C1=O; target = Protein-glutamine gamma-glutamyltransferase (TGM2, Homo sapiens, UniProt P21980); assay = enzyme activity, inhibitor; conditions = added: DTT 10 mM; endpoint = IC50; result = > 50 µM
SMILES = CCS(=O)(=O)N1CCCCN2[C@H](CO)[C@@H](c3ccc(-c4ccccc4C)cc3)[C@@H]2C1; target = IDE; assay = enzyme activity, inhibitor, fluorogenic kinetic; conditions = added: Mca-RPPGFSAFK(Dnp)-OH substrate; endpoint = EC50; result = 0.41 µM
SMILES = CC1CC(C)CN(c2ccc(C=NNc3nc(-c4ccc(Cl)cc4)cs3)cc2)C1 (centres unmarked); target = alpha-glucosidase; assay = enzyme activity, inhibitor; conditions = added: p-nitrophenyl-alpha-D-glucopyranoside; endpoint = IC50; result = 13.3 µM
SMILES = CC[C@@H]1[C@H](F)C(=O)N[C@@H]1COc1nccc2cc(C(N)=O)c(OC)cc12; target = Tyrosine-protein kinase receptor UFO (AXL, Homo sapiens, UniProt P30530); assay = ATP-site binding, ActivX kinase profiling; system = THP-1 cell lysate; conditions = AXL activation-loop probe peptide; endpoint = IC50; result = 2.9 µM
SMILES = Cc1cnn(Cc2ccc(Cn3cc(C(=O)NCc4ccc5c(N)nccc5c4)cn3)cc2)c1; target = PLG; endpoint = IC50; result = > 40 µM
SMILES = CCc1oc2ccccc2c1C(=O)c1ccc(O)cc1; target = Cytochrome P450 2E1 (CYP2E1, Homo sapiens, UniProt P05181); assay = p-nitrophenol hydroxylation; system = baculosomes; conditions = 10 min; endpoint = IC50; result = 0.04 µM
SMILES = Fc1ccc(-c2nc(-c3ccc4ccccc4c3Br)[nH]c2-c2ccncc2)cc1; target = CSNK1D; assay = inhibitor; endpoint = IC50; result = 0.0335 ± 0.0025 µM
SMILES = O=C(Nc1ccccc1)c1cc([N+](=O)[O-])ccc1Cl; target = Peroxisome proliferator-activated receptor gamma, with RXR (PPARG, Homo sapiens, UniProt P37231); assay = reporter gene, antagonist, PPRE-TK-luciferase; system = transfected HepG2; conditions = 24 h, added: GW1929; endpoint = IC50; result = 0.169 ± 0.049 µM
SMILES = Fc1ccc(-c2c(-c3ccncc3)ncn2-c2ccccc2)cc1; target = CSNK1D; assay = inhibitor; endpoint = IC50; result = > 5 µM
SMILES = O=C1C=Cc2c(c(-c3cccs3)cn2S(=O)(=O)c2ccccc2)C1=O; target = ELAV-like protein 1, RRM1-RRM2 domains (ELAVL1, Homo sapiens, UniProt Q15717); assay = HuR-RNA complex formation, REMSA; conditions = added: 1 nM labelled RNA probe; endpoint = IC50; result = 13 µM
SMILES = COc1cc(NC(=O)Nc2ccc(C)c(F)c2)cc2sc(NC(=O)c3ccccc3)nc12; target = Proto-oncogene tyrosine-protein kinase receptor Ret (RET, Homo sapiens, UniProt P07949); assay = kinase activity, inhibitor; conditions = replicate one, added: 1 µM ATP, poly(Glu,Tyr); endpoint = IC50; result = 5.16 µM
SMILES = CCCNC(=O)N1CC(=O)N2[C@@H](CO)[C@H](c3ccc(-c4cccc(C)c4)cc3)[C@@H]2C1; target = IDE; assay = enzyme activity, inhibitor, fluorogenic kinetic; conditions = added: Mca-RPPGFSAFK(Dnp)-OH substrate; endpoint = EC50; result = 2.4 µM
SMILES = CC(C)C[C@H](NC(=O)[C@H](CCc1ccccc1)NC(=O)CN1CCOCC1)C(=O)N[C@@H](Cc1ccccc1)C(=O)N[C@@H](CC(C)C)C(=O)[C@@]1(C)CO1; target = Proteasome subunit beta type-9 (Mus musculus, UniProt P28076); assay = proteasome subunit activity; system = Ba/F3 BCR-ABL1 p210; conditions = 1 h pulse; endpoint = IC50; result = 0.25 ± 0.237 µM
SMILES = O=C(O)c1ccc2[nH]c(-c3ccc(OCCC(O)COc4ccc(-c5nc6cc(C(=O)O)ccc6[nH]5)cc4)cc3)nc2c1 (centres unmarked); target = Dihydrofolate reductase type 2; assay = enzyme activity; conditions = pH 7; endpoint = IC50; result = 113 ± 13 µM
SMILES = CC(C)C[C@H](NC(=O)c1cc(Cl)ccc1Cl)C(=O)N[C@@H](CC(C)C)C(=O)N[C@H](/C=C/S(C)(=O)=O)Cc1ccc(CN)cc1; target = PSMB5; assay = inhibitor, competitive ABPP; system = Raji cell lysate; conditions = constitutive proteasome β5c; endpoint = IC50; result = 5.62 µM
SMILES = COCc1nn(Cc2ccc(Cn3ccccc3=O)cc2)cc1C(=O)NCc1c(F)ccc(OC)c1F; target = PLG; endpoint = IC50; result = > 40 µM
SMILES = Cc1ncc(C(=O)N[C@H](C(=O)N[C@@H](CC(C)C)C(=O)N[C@H](/C=C/S(C)(=O)=O)Cc2ccc(CN)cc2)C2CCCCC2)s1; target = PSMB5; assay = competitive ABPP; system = Raji cell lysate; endpoint = IC50; result = 2.24 µM
SMILES = O=C(c1ccc2nc(-c3ccc(OCCCOc4ccc(-c5nc6ccc(C(=O)N7CCOCC7)cc6[nH]5)cc4Br)c(Br)c3)[nH]c2c1)N1CCOCC1; target = Dihydrofolate reductase type 2; assay = enzyme activity; conditions = pH 7; endpoint = IC50; result = > 100 µM
SMILES = c1cc(-c2cc3ncc(OCC4CCNCC4)nc3cc2-c2cccc(N3CCCCC3)c2)cc(N2CCCCC2)c1; target = Protein AF-9, with AF4 (Homo sapiens, UniProt P42568); assay = AlphaScreen; endpoint = IC50; result = 1.7 ± 0.26 µM
